Measurements of several laboratories.
Each line is one published result; not all experiments were run side by side. pIC50: −log10 of the molar value.
PFF0160c: Dihydroorotate dehydrogenase (quinone), mitochondrial (PFF0160c, Plasmodium falciparum, UniProt Q08210)
UniProt Q08210, sequence (whole entry, looked up): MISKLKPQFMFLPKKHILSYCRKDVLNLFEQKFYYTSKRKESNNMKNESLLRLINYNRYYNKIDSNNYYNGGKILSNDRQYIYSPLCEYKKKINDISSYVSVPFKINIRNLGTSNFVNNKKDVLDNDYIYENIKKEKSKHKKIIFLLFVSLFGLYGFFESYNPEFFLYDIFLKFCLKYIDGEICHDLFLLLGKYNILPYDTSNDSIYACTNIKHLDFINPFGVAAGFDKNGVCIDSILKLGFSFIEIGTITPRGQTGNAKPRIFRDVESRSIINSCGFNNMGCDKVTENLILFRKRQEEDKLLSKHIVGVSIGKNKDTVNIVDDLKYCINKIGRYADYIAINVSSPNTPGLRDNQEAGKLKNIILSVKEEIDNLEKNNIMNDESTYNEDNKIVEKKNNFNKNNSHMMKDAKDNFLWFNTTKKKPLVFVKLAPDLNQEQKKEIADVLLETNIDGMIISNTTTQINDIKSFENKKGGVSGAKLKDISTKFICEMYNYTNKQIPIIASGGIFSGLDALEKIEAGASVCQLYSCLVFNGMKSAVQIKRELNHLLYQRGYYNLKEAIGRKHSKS
TMPRSS2: Transmembrane protease serine 2 (TMPRSS2, Homo sapiens, UniProt O15393)
UniProt O15393, sequence (whole entry, looked up): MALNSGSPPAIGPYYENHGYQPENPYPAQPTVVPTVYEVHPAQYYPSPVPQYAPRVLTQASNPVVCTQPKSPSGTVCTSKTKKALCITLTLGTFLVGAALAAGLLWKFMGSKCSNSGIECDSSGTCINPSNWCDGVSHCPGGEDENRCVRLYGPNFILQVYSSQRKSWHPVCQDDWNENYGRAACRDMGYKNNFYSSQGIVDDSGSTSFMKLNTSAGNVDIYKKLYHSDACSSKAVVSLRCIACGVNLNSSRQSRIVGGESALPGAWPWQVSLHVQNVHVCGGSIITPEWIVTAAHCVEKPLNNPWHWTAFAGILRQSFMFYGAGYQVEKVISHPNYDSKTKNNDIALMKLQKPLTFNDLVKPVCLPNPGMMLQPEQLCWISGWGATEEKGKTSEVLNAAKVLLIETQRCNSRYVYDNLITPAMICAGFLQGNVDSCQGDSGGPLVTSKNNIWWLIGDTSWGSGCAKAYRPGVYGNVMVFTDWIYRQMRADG
UniProt P35363, sequence (whole entry, looked up): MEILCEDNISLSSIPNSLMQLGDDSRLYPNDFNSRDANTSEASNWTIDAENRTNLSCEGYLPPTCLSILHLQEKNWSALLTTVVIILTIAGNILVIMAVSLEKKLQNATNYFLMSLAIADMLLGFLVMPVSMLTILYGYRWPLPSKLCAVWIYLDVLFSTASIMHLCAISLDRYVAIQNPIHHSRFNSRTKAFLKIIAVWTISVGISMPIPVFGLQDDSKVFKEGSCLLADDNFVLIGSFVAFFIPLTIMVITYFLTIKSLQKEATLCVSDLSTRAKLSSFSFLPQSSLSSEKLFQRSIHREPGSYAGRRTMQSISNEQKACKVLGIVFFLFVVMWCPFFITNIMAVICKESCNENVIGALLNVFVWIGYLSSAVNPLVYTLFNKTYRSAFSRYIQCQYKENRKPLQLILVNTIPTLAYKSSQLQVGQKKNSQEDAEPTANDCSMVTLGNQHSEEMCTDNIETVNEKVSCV
UniProt P31749, sequence (whole entry, looked up): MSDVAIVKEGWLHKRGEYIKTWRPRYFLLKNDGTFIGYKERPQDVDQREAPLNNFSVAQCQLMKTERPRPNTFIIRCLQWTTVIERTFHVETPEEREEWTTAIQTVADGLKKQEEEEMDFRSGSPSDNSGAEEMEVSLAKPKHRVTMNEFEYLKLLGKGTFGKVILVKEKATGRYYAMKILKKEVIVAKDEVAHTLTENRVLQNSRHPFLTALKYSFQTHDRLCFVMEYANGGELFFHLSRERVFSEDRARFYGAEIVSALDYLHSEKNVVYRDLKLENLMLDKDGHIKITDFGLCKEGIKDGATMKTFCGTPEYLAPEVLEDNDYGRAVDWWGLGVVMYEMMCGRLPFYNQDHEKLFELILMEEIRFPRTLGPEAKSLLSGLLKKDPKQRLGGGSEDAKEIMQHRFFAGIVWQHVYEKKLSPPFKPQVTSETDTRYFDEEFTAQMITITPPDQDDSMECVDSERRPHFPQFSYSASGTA
UniProt P50406, sequence (whole entry, looked up): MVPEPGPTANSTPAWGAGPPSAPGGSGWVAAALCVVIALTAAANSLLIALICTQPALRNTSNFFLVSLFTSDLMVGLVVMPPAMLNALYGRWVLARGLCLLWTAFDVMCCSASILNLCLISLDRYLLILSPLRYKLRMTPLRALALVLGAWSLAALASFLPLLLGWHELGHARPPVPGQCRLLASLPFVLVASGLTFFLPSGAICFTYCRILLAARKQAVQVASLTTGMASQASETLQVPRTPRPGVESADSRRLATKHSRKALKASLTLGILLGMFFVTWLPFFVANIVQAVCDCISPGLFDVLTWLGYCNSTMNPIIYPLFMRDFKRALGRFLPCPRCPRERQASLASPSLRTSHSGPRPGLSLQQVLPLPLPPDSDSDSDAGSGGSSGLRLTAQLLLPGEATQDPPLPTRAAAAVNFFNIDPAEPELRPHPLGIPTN
UniProt P14416, sequence (whole entry, looked up): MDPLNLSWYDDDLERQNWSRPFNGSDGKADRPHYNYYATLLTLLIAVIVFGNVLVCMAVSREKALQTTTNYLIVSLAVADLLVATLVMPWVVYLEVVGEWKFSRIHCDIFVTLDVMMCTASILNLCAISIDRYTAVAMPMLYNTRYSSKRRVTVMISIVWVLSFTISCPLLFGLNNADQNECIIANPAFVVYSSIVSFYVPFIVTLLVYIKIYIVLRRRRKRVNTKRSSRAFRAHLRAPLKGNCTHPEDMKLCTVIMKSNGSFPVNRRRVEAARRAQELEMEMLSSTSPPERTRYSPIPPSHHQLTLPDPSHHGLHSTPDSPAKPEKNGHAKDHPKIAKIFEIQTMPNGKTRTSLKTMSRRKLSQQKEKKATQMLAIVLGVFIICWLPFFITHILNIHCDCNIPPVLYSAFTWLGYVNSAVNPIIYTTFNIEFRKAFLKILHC
UniProt P10721, sequence (whole entry, unmodified, looked up): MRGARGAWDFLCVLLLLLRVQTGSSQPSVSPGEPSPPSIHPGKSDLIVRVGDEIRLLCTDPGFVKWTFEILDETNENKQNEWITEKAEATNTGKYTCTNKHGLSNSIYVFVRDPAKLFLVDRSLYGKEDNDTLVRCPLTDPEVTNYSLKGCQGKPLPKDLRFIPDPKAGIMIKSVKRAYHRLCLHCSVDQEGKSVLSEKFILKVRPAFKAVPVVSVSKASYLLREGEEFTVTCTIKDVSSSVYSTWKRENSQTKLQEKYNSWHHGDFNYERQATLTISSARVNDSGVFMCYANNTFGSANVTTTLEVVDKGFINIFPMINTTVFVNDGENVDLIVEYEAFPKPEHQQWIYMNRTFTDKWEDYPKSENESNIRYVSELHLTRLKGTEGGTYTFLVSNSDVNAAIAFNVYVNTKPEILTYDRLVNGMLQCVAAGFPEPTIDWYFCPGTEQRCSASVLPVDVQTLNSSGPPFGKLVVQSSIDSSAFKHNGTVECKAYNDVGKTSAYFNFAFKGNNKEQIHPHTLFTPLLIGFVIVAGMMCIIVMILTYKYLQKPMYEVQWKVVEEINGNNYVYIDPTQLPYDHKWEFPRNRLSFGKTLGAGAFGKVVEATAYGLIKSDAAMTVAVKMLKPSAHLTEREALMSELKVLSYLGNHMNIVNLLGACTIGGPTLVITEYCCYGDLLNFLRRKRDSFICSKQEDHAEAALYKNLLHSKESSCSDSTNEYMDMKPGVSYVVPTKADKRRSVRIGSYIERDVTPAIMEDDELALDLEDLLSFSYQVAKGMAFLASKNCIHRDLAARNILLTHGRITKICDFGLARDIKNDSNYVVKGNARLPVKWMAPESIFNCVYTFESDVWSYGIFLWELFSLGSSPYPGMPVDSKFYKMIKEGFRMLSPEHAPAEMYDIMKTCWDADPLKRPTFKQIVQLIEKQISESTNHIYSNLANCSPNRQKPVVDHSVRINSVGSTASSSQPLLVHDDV
UniProt P07711, sequence (whole entry, looked up): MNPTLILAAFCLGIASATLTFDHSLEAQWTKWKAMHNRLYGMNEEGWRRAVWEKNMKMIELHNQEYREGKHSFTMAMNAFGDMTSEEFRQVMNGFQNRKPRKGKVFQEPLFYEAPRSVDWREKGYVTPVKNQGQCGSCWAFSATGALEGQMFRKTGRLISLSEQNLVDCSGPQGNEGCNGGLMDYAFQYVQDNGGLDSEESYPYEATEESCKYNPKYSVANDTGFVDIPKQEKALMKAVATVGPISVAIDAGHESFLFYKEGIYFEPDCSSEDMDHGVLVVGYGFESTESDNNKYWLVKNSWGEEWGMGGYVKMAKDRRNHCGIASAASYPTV

For `Cc1cc(F)ccc1NS(=O)(=O)c1ccc(-c2ccoc2)s1`, the pIC50 was under 5.00 (PFF0160c; enzyme activity, inhibitor, absorbance).
With `[2H]c1c([2H])c([C@]2([2H])CCCN2C(=O)C(C)(C)Oc2ccc3cn[nH]c3c2)c([2H])c([2H])c1C([2H])([2H])[2H]` the remaining binding was 98% (Serine/threonine-protein kinase TAO1 (TAOK1, Homo sapiens, UniProt Q7L7X3); binding, competition with immobilised ligand; 1 µM).
`NCCc1c[nH]c2ccc(O)cc12` has an Emax of 100% (5-hydroxytryptamine receptor 2A (Htr2a, Mus musculus, UniProt P35363); G protein activation, agonist, BRET).
The inhibition of `CN1CCC[C@H]1c1cccnc1` is reported as 3.23% (D(2) dopamine receptor (DRD2, Homo sapiens, UniProt P14416); ligand displacement; 50 µM).
With `Nc1ncc(-c2nc(N3CCOCC3)nc(N3CCOCC3)n2)c(C(F)F)n1` the remaining binding was 92% (Atypical kinase COQ8B, mitochondrial (COQ8B, Homo sapiens, UniProt Q96D53); binding, competition with immobilised ligand; 10 µM).
Under “activity vs control”, `N=C(N)NCCCC(NC(=O)[C@@H]1CCCN1C(=O)[C@H](CC(N)=O)NC(=O)[C@@H](N)CCCNC(=N)N)C(=O)c1nc2ccccc2s1` (some centres unmarked) is recorded as 83% (TMPRSS2; enzyme activity, inhibitor; 1 nM).
`Cc1nn(C)cc1-c1nc2c(N3CCN(Cc4ccc(Cl)cc4)CC3)c(Cl)cnc2[nH]1` has a remaining binding of 64% (Mast/stem cell growth factor receptor Kit (KIT, Homo sapiens, UniProt P10721, A829P); binding, competition with immobilised ligand; 1 µM).
`C[C@@H](O)[C@@H](NC(=O)[C@H](CCc1ccccc1)NC(=O)CCc1ccccc1)C(=O)N[C@H](CCCNC(=N)N)C(=O)c1nc2ccccc2s1`: “activity vs control” 75% (TMPRSS2; enzyme activity, inhibitor; 1 nM).
`CCN(CC)CCCC[C@H](NC(=O)[C@H](CC(C)C)NC(=O)[C@H](C)NC(=O)[C@H](Cc1ccccc1)NC(=O)c1ccc(C(C)(C)C)cc1)C(=O)N[C@@H](CO)C(=O)OC` has a remaining binding of 105% (5-hydroxytryptamine receptor 6 (HTR6, Homo sapiens, UniProt P50406); ligand displacement, radioligand; 10 µM).
`COc1cccc2c1cc([N+](=O)[O-])c1c(C(=O)O)cc3c(c12)OCO3` gave a remaining activity of 71.7% (Procathepsin L (CTSL, Homo sapiens, UniProt P07711); enzyme activity, inhibitor; 100 µM).
Under “activity vs control”, `CS(=O)(=O)N([C@@H](CCC(N)=O)C(=O)N[C@@H](Cc1ccccc1)C(=O)N[C@H](CCCNC(=N)N)C(=O)c1nc2ccccc2s1)S(C)(=O)=O` is recorded as 87% (TMPRSS2; enzyme activity, inhibitor; 1 nM).
The remaining binding of `COc1ncccc1-c1cnn2ccc(N3CCN(C(=O)OC(C)C)CC3)nc12` is reported as 100% (Serine/threonine-protein kinase pim-3 (PIM3, Homo sapiens, UniProt Q86V86); binding, competition with immobilised ligand; 1 µM).
`C#Cc1n[nH]c2c(-c3cn([C@@H](C)c4ccccn4)c(=O)[nH]c3=O)cc(F)cc12` gave an inhibition of 0.9% (RAC-alpha serine/threonine-protein kinase (AKT1, Homo sapiens, UniProt P31749); enzyme activity, inhibitor; 0.1 µM).
The pIC50 of `Cc1cc(Nc2ccc(Cl)c(Cl)c2)n2nc(C)nc2n1` is reported as 6.76 (PFF0160c; enzyme activity, inhibitor, absorbance).

Some of these lines once more:
With `Nc1ncc(-c2nc(N3CCOCC3)nc(N3CCOCC3)n2)c(C(F)F)n1` the remaining binding was 92% (Atypical kinase COQ8B, mitochondrial (COQ8B, Homo sapiens, UniProt Q96D53); binding, competition with immobilised ligand; 10 µM).
Under “activity vs control”, `N=C(N)NCCCC(NC(=O)[C@@H]1CCCN1C(=O)[C@H](CC(N)=O)NC(=O)[C@@H](N)CCCNC(=N)N)C(=O)c1nc2ccccc2s1` (some centres unmarked) is recorded as 83% (TMPRSS2; enzyme activity, inhibitor; 1 nM).
